Results collected from several papers.
Each line is one published result; not all experiments were run side by side. Values joined by “and” are separate records of one study, mostly repeats; a detail may differ. Numbers after ± are the reported error.

For `CN/C(=N\[N+](=O)[O-])NCc1cnc(Cl)s1`, “measured soil concentration” read 0.07 mg/kg dry soil (test soil; 0.12 mg/kg nominal, 0 days).
`COc1ccc2c(c1)[C@]13CCCC[C@@H]1[C@H](C2)N(C)CC3` gave a plasma concentration of 252 ng/mL and 608 ng/mL and 217 ng/mL and 411 ng/mL and 225 ng/mL (C57BL/6 mice, plasma; oral, 50 µg/g, 15 min).
For `O=C1c2c(O)c(=O)ccn2N([C@@H]2c3ccccc3SCc3c2ccc(F)c3F)[C@@H]2COCCN12`, the plasma concentration was 0.438 ng/mL (BALB/c mouse, plasma; oral, 0.5 mg/kg baloxavir marboxil every 12 h, 24 h).
For `NC(=O)c1ncn([C@@H]2O[C@H](CO)[C@@H](O)[C@H]2O)n1`, the CC50 was 360 µM (dog cells).
For `O=C(O)CCC(CP(=O)(O)O)C(=O)O` (stereo not shown), the AUC(0-last) was 207000 ng·h/mL (Wistar rat, male, plasma; ip, 100 mg/kg).
`COc1cc2c(Oc3ccc4[nH]c(C)cc4c3F)ccnc2cc1OCC1(N)CC1`: “incidence of adverse event” 0% (refers to: grade 3 influenza-like symptoms; paediatric high-risk refractory sarcoma; 8 mg).
`CNC(C)Cc1ccc2c(c1)OCO2` (stereo not shown) has a fraction unbound of 0.793 (rapid equilibrium dialysis; human plasma; 250 ng/mL).
With `O=C(O)c1cn(Cc2cccc(Cl)c2)c2ccccc12` the alkaline phosphatase was 248 U/L (F344 rat, male, serum; oral, 150 mg/kg/day, 2 days, group mean).
For `O=C1c2c(O)c(=O)ccn2N([C@@H]2c3ccccc3SCc3c2ccc(F)c3F)[C@@H]2COCCN12`, the CC50 was 5.7 µM (bovine cells).
The solubility of `C#Cc1ccc2c(c1)C(c1ccccn1)=NCc1c(-c3cnco3)ncn1-2.Cl` is reported as 749 µg/mL (shake flask; 50 mM phosphate buffer; 24 h, pH 8, 25 °C).
`CC(=O)Oc1ccc2c3c1O[C@H]1[C@@H](OC(C)=O)C=C[C@H]4[C@@H](C2)N(C)CC[C@@]341` has an AUC(0-last) of 4 ± 0.667 ng·h/mL (LC-MS/MS; Sprague-Dawley rat, male, whole blood; intraperitoneal, 10 mg/kg, up to 180 min).
`CC(C)(C)[C@H](NC(=O)C(F)(F)F)C(=O)N1C[C@H]2[C@@H]([C@H]1C(=O)N[C@H](C#N)C[C@@H]1CCNC1=O)C2(C)C` gave an intrinsic clearance of 26.5 mL/min/kg (rat hepatocytes; scaled to liver).
`OCc1ncc2n1-c1ccc(Cl)cc1C(c1ccccc1F)=NC2` — result for “AUC(0-t) geometric mean ratio”: 80.6% (healthy volunteers, plasma; with: momelotinib; baseline: with momelotinib over alone).
`NC(=O)c1nc(F)c[nH]c1=O` has a CC50 of 310 µM (bovine cells).
For `Cc1nnc2n1-c1ccc(Cl)cc1C(c1ccccc1)=NC2`, the AUC was 522 ± 36.1 ng·h/mL (human, female; 2 mg, day 22, after hop intake, mean).
`CCN(CC)C(=O)[C@@H]1C=C2c3cccc4[nH]cc(c34)C[C@H]2N(C)C1` has an AUC extrapolated of 2.22% and 1.6% and 1.67% and 3.42% and 3.55% and 2.54% and 2.8% and 2.68% (human; oral, 100 µg).
